Measured values from different studies.
Each numbered part is a random draw from the data of one study; scales do not carry over between parts. Positions count from the first letter of the parent shown.

Set 1
Target: Protein C-ets-1 (ETS1, Homo sapiens, UniProt P14921, residues 1-441, K379A, full length assumed)
Technique: protein-binding microarray
Form: double-stranded DNA, one strand shown
Medium: in vitro
Tested at: not given
Notes: k-mer, scored over probes, only values ≥0.25
Reading: higher = stronger binding
Endpoint: E-score
Residues (chain): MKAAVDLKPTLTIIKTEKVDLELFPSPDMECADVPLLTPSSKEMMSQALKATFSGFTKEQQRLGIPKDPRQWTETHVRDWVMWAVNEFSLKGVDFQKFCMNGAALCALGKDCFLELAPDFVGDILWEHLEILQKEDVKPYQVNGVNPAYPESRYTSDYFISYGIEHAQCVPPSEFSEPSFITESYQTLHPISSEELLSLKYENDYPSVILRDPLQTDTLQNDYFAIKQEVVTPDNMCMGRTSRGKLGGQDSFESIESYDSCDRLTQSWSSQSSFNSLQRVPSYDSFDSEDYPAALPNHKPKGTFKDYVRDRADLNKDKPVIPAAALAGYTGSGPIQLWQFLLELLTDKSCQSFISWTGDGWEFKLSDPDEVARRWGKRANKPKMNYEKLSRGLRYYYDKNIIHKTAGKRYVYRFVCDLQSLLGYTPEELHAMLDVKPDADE
CCCCTCCC: 0.257
GTATAGTA: 0.279
TGTCGGAA: 0.283
AACCCCGG: 0.387
GCCGCGGC: 0.257
TTCCGGAA: 0.447
CATGTGTA: 0.258
CCGCCCGC: 0.323
CGGTTGTA: 0.268
AGTACCGG: 0.361

Set 2
Target: CCNB3, cyclin fold, Cln2 fusion (human)
Technique: yeast growth competition, sequencing
Medium: yeast
Notes: weak parent motif
Baseline: not given
Reading: higher = stronger binding
Endpoint: normalised enrichment score
Starting sequence: SLBP docking peptide (human); ARYKRKLLINDFG
ARYKRKLLINDFF [G13F]: 0.299
WRYKRKLLINDFG [A1W]: 0.126
ARYKRKLLINNFG [D11N]: 0.132
PRYKRKLLINDFG [A1P]: 0.33
ARYKRKLLINDWG [F12W]: 0.041
ARYKRKLLINDFL [G13L]: -0.499
ARYKRKLLCNDFG [I9C]: 0.283
ARYKRKLLINCFG [D11C]: -0.0232
ARYKRKLLIVDFG [N10V]: -0.0557
ARYKRKLLIGDFG [N10G]: 0.864
ARYKRDLLINDFG [K6D]: -0.326

Set 3
Target: RNA binding protein fox-1 homolog 2, RRM domain, GST-SBP tag (RBFOX2, Homo sapiens, UniProt O43251-10, residues 100-194)
Technique: RNA Bind-n-Seq
Form: RNA
Medium: in vitro
Tested at: 365 nM
Notes: natural RNA segment, single round, ends assumed
Baseline: no-protein control
Reading: higher = stronger binding
Endpoint: RBNS enrichment (R)
Residues (chain): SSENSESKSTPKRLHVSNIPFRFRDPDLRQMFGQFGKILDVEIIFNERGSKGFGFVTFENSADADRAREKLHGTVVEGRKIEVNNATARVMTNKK
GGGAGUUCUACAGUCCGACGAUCUUUUUAUAUUUUUCAAUGCAUUUAAUUAUCUUUUUUAUAAUUCUUUGUACUAACUCAGCAUGUAACAACCAAUUUACAUGGAAAUAAAUCGAAAUAUGAUAACUAUUAUGUGGAAUUCUCGGGUGCCAA: 0.731
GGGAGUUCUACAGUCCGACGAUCUAAUUUUUUUGGCCAAUUUAUUUUCUCCCACUUUGUCAUUAAAAUCACAUGUCUAACUGGCUCACCACAUAGUGUGCUUUGAUUGUAUUUUGGCUUUGACUCUGCCAUUUUGGAAUUCUCGGGUGCCAA: 0.797
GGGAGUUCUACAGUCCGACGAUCAGAGACAUAUCGAGGUAGUUACAUAAAAUUAUUUUGUUUGGCAUUAUUUUUCUCACUCGAAGAAACUAUAUAGGGUUGUUUUUCCUUUAGCUUGUGCUCAAGUCCUCUUGUGGAAUUCUCGGGUGCCAA: 0.599
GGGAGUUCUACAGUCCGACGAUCAUGCUGGUGUUUGAUUUCCUGUGUUGUUGCCUCAGCGUUAAGGGCAUUUCCGUUUGCAGUUCUACUAAAGACACUCUGAGAAAUAUUCCGAGUUUCGUAUUAACCUUUCCUGGAAUUCUCGGGUGCCAA: 0.901
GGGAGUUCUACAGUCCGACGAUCCUUUCUGGCCCUUCCCCGCUCCUAGUUACUAGAUGACCAUACUCAUACUUGCAAAGGAGAGGAGAGAGUGCUAAAGCCUGGUUCUGACUGAGGGCUCUGCGUCCCUGCAGUGGAAUUCUCGGGUGCCAA: 0.248
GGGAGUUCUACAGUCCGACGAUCGUAGUGAUUAGCAUUUAGAUAAUGUAACAGGAUUUUAGAGAGCACUUUGAAAGAUAACAUUUUAUUAUGAUGGUGCUAGGUAAAAAAUUGUAAAGACUGGGAUGGUUGUGUGGAAUUCUCGGGUGCCAA: 0.272
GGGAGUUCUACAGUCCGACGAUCAGUGGGGGUGCUGUACUCACUGGCUUUGUGACCUGGCCUGGGGGGGGUUCCAGGUAAGAGAAACAGAGACCCCUACCCCAGCUGUUUACUACCUGGUGGGCUGGUUGAGGUGGAAUUCUCGGGUGCCAA: 1.09
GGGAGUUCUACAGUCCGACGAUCGUUUACAAUAUUAAAAUGUAUGUUAGCAAAAUGGGUGGAUUUUCAAAUAAAAUGCAGCUUCCACAAAGUUUUGUUAUGGUAUUCUGGUCUGAGAUGCAUUUUCAUUUUUCUGGAAUUCUCGGGUGCCAA: 1.76
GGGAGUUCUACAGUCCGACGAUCUUUAUUUUUUAACUAAAGCUAUAUAAAGCUUGUGGAUUAAACAGAAUAAAUUUCUAAAUUUAAGAACUUGCCACUCACAUUUAUUCGCCUGCAGGGGAGGACGGAGUUCAUGGAAUUCUCGGGUGCCAA: 1.26
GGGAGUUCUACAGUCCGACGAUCUUCCCACAAAUUCCUCACUUUUAGACACACUCUAAGCUUACUUCUGGCCUGGAUGCUUCCUCUCCCUGUCUCUCCCUUGCCCCACAGCGGUUCCCUGACAGCAGACAAGGUGGAAUUCUCGGGUGCCAA: 1.06
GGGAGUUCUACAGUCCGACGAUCCAGUGAGGGAGAGAGACCCCGACUCCAUUUGUACUUCUUUCUUGACACUCUUCUCAGCUUAUAAAAUUUGCCGUUUUGUAUAUUUUUAAAUAUGGAUCAAAAAGAGUCUUUGGAAUUCUCGGGUGCCAA: 0.492

Other studies, line by line
PhoQ, residues 284 288 289 292 302 303 TTSMTC — fold induction (PhoP, residues 12 14 15 18 19 TQAIL (Escherichia coli, UniProt P23836); Sort-seq, item: YFP reporter; E. coli; PhoQ-PhoP variant library, together with: 10 µM Mg2+; baseline: high Mg2+ state, higher = stronger signaling): 2.83

A few entries again (set 1):
GTATAGTA: 0.279
TGTCGGAA: 0.283
CATGTGTA: 0.258
CCCCTCCC: 0.257
